{"data": "Assay results from different studies", "note": "Each numbered part is a random draw from the data of one study; scales do not carry over between parts."}
{"data": "Block 1", "target": "Phosphate system positive regulatory protein PHO4, full length, GST-tagged (PHO4, Saccharomyces cerevisiae, UniProt P07270, residues 1-312)", "method": "competition protein-binding microarray", "form": "double-stranded DNA, one strand shown", "matrix": "in vitro", "concentration": "2 µM", "setting": "whole 60-bp probe, lowest competitor level", "together with": "Cbf1 competitor, 0.05 µM", "reading": "higher = stronger binding", "Target sequence (chain)": "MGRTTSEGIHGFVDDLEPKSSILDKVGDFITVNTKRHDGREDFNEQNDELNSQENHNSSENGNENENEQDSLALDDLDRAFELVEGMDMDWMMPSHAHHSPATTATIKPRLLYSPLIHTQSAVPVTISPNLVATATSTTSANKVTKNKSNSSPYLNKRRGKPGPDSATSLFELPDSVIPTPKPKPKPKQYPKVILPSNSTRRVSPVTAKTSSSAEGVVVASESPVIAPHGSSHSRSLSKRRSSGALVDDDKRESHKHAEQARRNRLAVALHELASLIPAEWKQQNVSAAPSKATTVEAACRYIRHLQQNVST"}
{"Strand": "CGGGGTTAAGTTTGTCACGAAACTTGCTTGCAGCAGGTCTTGATTCGCTTGACGCTGCTG", "fluorescence intensity [a.u.]": 3520}
{"Strand": "AGGGTGGGTTTGATTTTCATCTTGATGCAACCTCTCGTCTTGATTCGCTTGACGCTGCTG", "fluorescence intensity [a.u.]": 3210}
{"Strand": "TATATGTTTCACTGGCACGTTTTGTTTTGTCCCCTTGTCTTGATTCGCTTGACGCTGCTG", "fluorescence intensity [a.u.]": 14000}
{"Strand": "GCCAAGGACCATTACCCCGTGAAGAGATTCTATTGGGTCTTGATTCGCTTGACGCTGCTG", "fluorescence intensity [a.u.]": 5680}
{"data": "Block 2", "target": "Sal-like protein 4, full length isoform A (SALL4, Homo sapiens, UniProt Q9UJQ4, residues 1-1053)", "method": "universal PBM", "form": "double-stranded DNA, one strand shown", "matrix": "in vitro", "concentration": "600 nM", "setting": "8-mer, flanks averaged, mean of replicates", "reading": "higher = stronger binding", "UniProt Q9UJQ4, sequence (whole entry, looked up)": "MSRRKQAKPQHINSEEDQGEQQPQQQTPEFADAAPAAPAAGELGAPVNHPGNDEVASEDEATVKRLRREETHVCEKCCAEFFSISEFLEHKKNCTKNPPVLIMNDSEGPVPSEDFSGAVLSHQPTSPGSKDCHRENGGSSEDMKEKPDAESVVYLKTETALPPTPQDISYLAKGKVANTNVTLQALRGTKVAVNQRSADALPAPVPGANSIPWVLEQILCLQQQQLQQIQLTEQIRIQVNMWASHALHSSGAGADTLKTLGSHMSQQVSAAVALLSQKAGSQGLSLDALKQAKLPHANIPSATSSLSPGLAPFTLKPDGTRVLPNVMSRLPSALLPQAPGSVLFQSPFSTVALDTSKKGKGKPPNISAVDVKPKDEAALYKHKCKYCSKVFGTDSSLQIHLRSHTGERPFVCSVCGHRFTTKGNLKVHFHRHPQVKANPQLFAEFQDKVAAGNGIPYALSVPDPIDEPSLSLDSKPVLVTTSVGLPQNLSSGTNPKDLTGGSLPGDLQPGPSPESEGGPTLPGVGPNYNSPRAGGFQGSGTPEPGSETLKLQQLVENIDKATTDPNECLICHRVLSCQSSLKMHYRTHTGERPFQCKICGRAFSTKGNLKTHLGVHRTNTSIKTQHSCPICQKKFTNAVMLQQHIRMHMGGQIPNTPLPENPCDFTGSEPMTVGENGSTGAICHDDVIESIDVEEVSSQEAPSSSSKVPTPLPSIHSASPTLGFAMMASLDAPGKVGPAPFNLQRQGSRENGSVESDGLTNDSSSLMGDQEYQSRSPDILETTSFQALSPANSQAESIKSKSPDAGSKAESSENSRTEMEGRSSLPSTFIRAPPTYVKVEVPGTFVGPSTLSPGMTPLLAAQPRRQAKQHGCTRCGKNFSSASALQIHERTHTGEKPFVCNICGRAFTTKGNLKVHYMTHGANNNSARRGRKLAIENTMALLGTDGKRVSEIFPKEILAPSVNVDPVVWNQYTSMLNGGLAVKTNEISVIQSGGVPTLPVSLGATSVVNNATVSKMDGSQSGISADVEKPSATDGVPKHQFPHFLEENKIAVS"}
{"Strand": "CAGGTGCA", "E-score": -0.14}
{"Strand": "AGTCAAAA", "E-score": 0.142}
{"Strand": "TATCCTCA", "E-score": 0.0617}
{"Strand": "CCCGAGCG", "E-score": -0.293}
{"data": "Block 3", "target": "Prothrombin, mature alpha-thrombin (F2, Homo sapiens, UniProt P00734)", "method": "aptamer microarray, sandwich", "form": "DNA with 2'F-ANA", "matrix": "in vitro", "concentration": "200 nM", "setting": "whole 15-mer aptamer, many near background", "together with": "Cy3 exosite-II aptamer, 400 nM", "reading": "higher = stronger binding"}
{"Strand": "GGTTGGTGTGGTTGG (2'F-ANA at 1 4 6 9 10 11 13 14 15)", "mean fluorescence intensity [a.u.]": 50.8}
{"Strand": "GGTTGGTGTGGTTGG (2'F-ANA at 3 4 6 8 11 14 15)", "mean fluorescence intensity [a.u.]": 248}
{"Strand": "GGTTGGTGTGGTTGG (2'F-ANA at 1 2 3 4 5 6 8 9 11 12 15)", "mean fluorescence intensity [a.u.]": 105}
{"Strand": "GGTTGGTGTGGTTGG (2'F-ANA at 1 3 4 5 9 10 12 13 15)", "mean fluorescence intensity [a.u.]": 46.5}
{"data": "Mixed results"}
{"Substance": "PhoQ, residues 284 288 289 292 302 303 SNSSNI", "target": "PhoP, residues 12 14 15 18 19 VQALL (Escherichia coli, UniProt P23836)", "test": "Sort-seq, refers to: YFP reporter", "test system": "E. coli", "setting": "PhoQ-PhoP variant library, together with: 10 µM Mg2+", "how to read": "reference: high Mg2+ state, higher = stronger signaling", "quantity": "fold induction", "value": 2.3}
{"note": "For quick reference, copied from above (block 3):"}
{"Strand": "GGTTGGTGTGGTTGG (2'F-ANA at 3 4 6 8 11 14 15)", "mean fluorescence intensity [a.u.]": 248}
{"Strand": "GGTTGGTGTGGTTGG (2'F-ANA at 1 2 3 4 5 6 8 9 11 12 15)", "mean fluorescence intensity [a.u.]": 105}
